Assay results pooled from the literature.
± gives the spread as reported.

O=C(NCCCN1CCC(Cc2ccccc2)CC1)c1ccc2ccccc2n1 — IC50 (Sodium-dependent serotonin transporter (SLC6A4, Homo sapiens, UniProt P31645); transporter uptake): 0.03 to 50 µM
COc1ccc2c(O)c(C(=O)Nc3ccc(CN)cc3)ccc2c1 — IC50 (Transmembrane protease serine 2 (TMPRSS2, Homo sapiens, UniProt O15393); enzyme activity, inhibitor, fluorescence; with preincubation): 6 µM
CCCN(CC(=O)N(CCC)CC(=O)N(CCC)CC(=O)N(CC(N)=O)Cc1cn(CCCNC(=O)CCCOc2cccc(-c3nc4ccc(-c5nc6ccc(N7CCN(C)CC7)cc6[nH]5)cc4[nH]3)c2)nn1)C(=O)CNCc1cn(CCCNC(=O)CCCOc2cccc(-c3nc4ccc(-c5nc6ccc(N7CCN(C)CC7)cc6[nH]5)cc4[nH]3)c2)nn1 — IC50 (MBNL1–r(CUG)109 complex; MBNL1 displacement; together with: bulk yeast tRNA competitor): 18 ± 4 µM
CC(=O)c1c(O)c2ccc3ccccc3c2oc1=O — IC50 (Tyrosine-protein kinase SYK (SYK, Homo sapiens, UniProt P43405); enzyme activity, inhibitor, ADP detection): > 100 µM
O=C(Nc1ccc(OC(F)(F)F)cc1)N1CCC(Cc2cccc(Oc3ccc(C(F)(F)F)cn3)c2)CC1 — IC50 (Fatty-acid amide hydrolase 1 (Faah, Mus musculus, UniProt O08914); enzyme activity, inhibitor, fluorescence; mouse tissue homogenate; 5 min preincubation): 1.4 µM
C[C@@H](O)[C@H](NC(=O)CC(=O)OC[C@H]1O[C@@H](n2cnc3c(N)ncnc32)[C@H](O)[C@@H]1O)C(=O)O — IC50 (tsaD/tsaC, with TsaB and TsaE (Escherichia coli, UniProt P05852+P45748); inhibitor, HPLC; pH 7.5, 23 °C, preincubation 1 min, together with: ATP 1 mM and L-threonine): > 1000 µM
COc1ccc2c3c(c(Cc4ccc(Cl)cc4)[nH]c13)CCNC2=O — IC50 (cGMP-specific 3',5'-cyclic phosphodiesterase (PDE5A, Homo sapiens, UniProt O76074); enzyme activity, inhibitor): 0.055 µM
OC(c1ccccc1)(c1ccccc1)c1ccccc1Cl — IC50 (Gap junction alpha-8 protein (Gja8, Mus musculus, UniProt P28236); gap junction current, inhibitor, dual whole-cell voltage clamp; transfected mouse N2a cell pairs): 2 µM
CCNC(=S)NCC — IC50 (Urea transporter 1 (Slc14a1, Rattus norvegicus, UniProt P97689); urea transport, inhibitor; rat erythrocytes; 15 min): 17000 ± 2000 µM
CC(C)c1c(-c2cccc3[nH]ccc23)[nH]c(C(=O)O)c1-c1c(Cl)ccc2[nH]ccc12 — IC50 (E3 ubiquitin-protein ligase RING2, with BMI1 (RNF2, Homo sapiens, UniProt Q99496); H2A ubiquitination): 1.6 µM
O=C(CCCCCCC(=O)NO)NO — IC50 (HDAC (Lucilia cuprina egg nuclear extract); enzyme activity, inhibitor, fluorometric): 9.9 µM
CCN(CC)CC#CC[C@H](N)C(=O)O — IC50 (collagenase; gelatin hydrolysis, inhibitor): 750 µM
Cc1cnc(-c2cc(=O)n3nc(N[C@@H](CC4CCC(F)(F)C4)C(=O)Nc4ccc(C(F)F)cc4)sc3n2)o1 (some centres unmarked) — IC50 (Protein phosphatase 1D (PPM1D, Homo sapiens, UniProt O15297); enzyme activity, inhibitor, mass spectrometry): 0.0051 µM
COc1cc2nccc(Oc3ccc(NC(=S)NC(C)C(F)(F)F)c(Cl)c3)c2cc1C(N)=O (centres unmarked) — IC50 (Fibroblast growth factor receptor 1 (FGFR1, Homo sapiens, UniProt P11362)): 1.58 µM
Clc1ccc(CCn2cc(-c3ccc(N4CCNCC4)cc3)nn2)cc1 — IC50 (Endothiapepsin (EAPA, Cryphonectria parasitica, UniProt P11838); enzyme activity, inhibitor, fluorescence): 121 µM
CN(C)c1ccc(-c2oc3ccccc3c(=O)c2OCc2ccccc2)cc1 — IC50 (β-glucosidase; enzyme activity, inhibitor): 0.25 ± 0.12 µM
CC(C)CCC[C@@H](C)[C@H]1CC[C@H]2[C@@H]3CC=C4C[C@@H](OS(=O)(=O)O)CC[C@]4(C)[C@H]3CC[C@]12C — IC50 (Prothrombin (F2, Homo sapiens, UniProt P00734); enzyme activity, inhibitor; together with: unfractionated heparin 50 µM): 136 ± 5.3 µM

Excerpt of the above:
CCNC(=S)NCC — IC50 (Urea transporter 1 (Slc14a1, Rattus norvegicus, UniProt P97689); urea transport, inhibitor; rat erythrocytes; 15 min): 17000 ± 2000 µM
CC(C)c1c(-c2cccc3[nH]ccc23)[nH]c(C(=O)O)c1-c1c(Cl)ccc2[nH]ccc12 — IC50 (E3 ubiquitin-protein ligase RING2, with BMI1 (RNF2, Homo sapiens, UniProt Q99496); H2A ubiquitination): 1.6 µM
